Measurements from different studies.
Every numbered part comes from another study and shows a few of its results, in no order. Positions count from the first letter of the parent shown.

Series 1
Target: ABI1, truncated, D143A, DHFR fusion (Arabidopsis thaliana)
Method: DHFR PCA, deep sequencing
Medium: yeast
Notes: methotrexate growth selection, single substitutions
Added: (+)-ABA 0.032 µM
Reference: wild-type fitted maximum
Reading: higher = stronger binding
Starting sequence: PYL1, truncated, DHFR fusion (Arabidopsis thaliana); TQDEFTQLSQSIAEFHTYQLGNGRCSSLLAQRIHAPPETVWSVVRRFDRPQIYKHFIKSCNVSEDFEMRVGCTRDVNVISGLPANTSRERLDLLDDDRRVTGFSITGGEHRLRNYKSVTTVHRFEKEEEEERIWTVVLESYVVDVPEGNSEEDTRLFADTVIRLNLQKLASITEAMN; partner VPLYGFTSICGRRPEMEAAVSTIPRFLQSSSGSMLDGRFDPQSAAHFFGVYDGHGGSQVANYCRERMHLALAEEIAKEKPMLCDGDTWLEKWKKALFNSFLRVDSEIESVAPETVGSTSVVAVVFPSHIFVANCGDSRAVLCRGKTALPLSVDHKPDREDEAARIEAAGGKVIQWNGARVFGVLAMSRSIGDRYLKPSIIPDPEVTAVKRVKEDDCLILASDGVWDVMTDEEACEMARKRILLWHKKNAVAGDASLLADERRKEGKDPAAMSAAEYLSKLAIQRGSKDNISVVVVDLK
Change	relative binding score
A170P	-2.16%
N22G	21.5%
H16A	8.24%
P50D	-1.12%
M68P	1.38%
I79M	5.96%
I12K	-6.1%
V62T	4.65%
G108L	-3.73%
V118S	-0.959%
N77W	5.25%
N77P	-2.59%
S59M	-2.84%
H55T	12.1%
F5A	10.4%
I57S	1.82%
R90M	1.51%
R88L	3.08%
E67A	10%
N77Q	59.8%
V143K	-3.56%
L94Y	5.41%
G102C	-1.98%
V100G	-0.996%

Series 2
Target: UBE2H UBC core domain (UniProt P62256)
Chain of UniProt P62256 (whole entry, looked up): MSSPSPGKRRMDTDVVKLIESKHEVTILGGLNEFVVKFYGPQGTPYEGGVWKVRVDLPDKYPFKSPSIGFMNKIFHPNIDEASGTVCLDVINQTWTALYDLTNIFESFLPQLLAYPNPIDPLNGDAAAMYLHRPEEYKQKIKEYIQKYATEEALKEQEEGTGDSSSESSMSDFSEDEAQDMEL
Method: yeast two-hybrid
Medium: yeast
Notes: mostly zero background
Reference: not given
Reading: higher = stronger interaction
B1: RC3H2 RING domain (UniProt Q9HBD1); chain QAAQWTEFLSCPICYNEFDENVHKPISLGCSHTVCKTCLNKLHRKACPFDQTAINTDIDVL
B2: ZNF598 RING domain (UniProt Q86UK7); chain AAAPERGGGSCVLCCGDLEATALGRCDHPVCYRCSTKMRVLCEQRYCAVCREELRQVVFGK
B3: TRIM63 RING domain (UniProt Q969Q1); chain PMENLEKQLICPICLEMFTKPVVILPCQHNLCRKCANDIFQAANPYWTSRGSSVSMSGGRFRCPTCRHEVIMDRHGV
B4: IRF2BPL RING domain (UniProt Q9H1B7); chain SPMANSGPLCCTICHERLEDTHFVQCPSVPSHKFCFPCSRESIKAQGATGEVYCPSGEKCPLVGSNVP
B5: CUL9 RING domain (UniProt Q8IWT3); chain AQAVPVRPDHCPVCVSPLGCDDDLPSLCCMHYCCKSCWNEYLTTRIEQNLVLNCTCPIADCPAQPTGAFIR
B6: ARK2C RING domain (UniProt Q6ZSG1); chain EGEESDTDEKCTICLSMLEDGEDVRRLPCMHLFHQLCVDQWLAMSKKCPICRVDIETQLGAD
B7: TRIM72 RING domain (UniProt Q6ZMU5); chain APGLLHQELSCPLCLQLFDAPVTAECGHSFCRACLGRVAGEPAADGTVLCPCCQAPTRPQALST
B8: RNF170 RING domain (UniProt Q96K19); chain TRQQFYTDMYCPICLHQASFPVETNCGHLFCGACIIAYWRYGSWLGAISCPICRQTVTLLLTVF
B9: RNF25 RING domain (UniProt Q96BH1); chain LTDNNIPHGQCVICLYGFQEKEAFTKTPCYHYFHCHCLARYIQHMEQELKAQGQEQEQERQHATTKQKAVGVQCPVCREPLVYDLASL
Molecule	lacZ reporter activity
YWAMDSTFELCKICAESNKDVKIEPCGHLLCSCCLAAWQHSDSQTCPFCRCEIKGWEAVS (CBLC RING domain (UniProt Q9ULV8))	0
B1 (RC3H2 RING domain)	0
FPEHFVKSISCQICEHILADPVETNCKHVFCRVCILRCLKVMGSYCPSCRYPCFPTDLES (RAG1 RING domain (UniProt P15918))	0
B2 (ZNF598 RING domain)	0
PEELQAMDNVCIICREEMVTGAKRLPCNHIFHTSCLRSWFQRQQTCPTCRMDVLRASLPA (SYVN1 RING domain (UniProt Q86TM6))	0
DDENSDNSNECVVCLSDLRDTLILPCRHLCLCTSCADTLRYQANNCPICRLPFRALLQIR (MGRN1 RING domain (UniProt O60291))	0
B3 (TRIM63 RING domain)	0
QLRRLQEERTCKVCMDKEVSIVFIPCGHLVVCKDCAPSLRKCPICRSTIKGTVRTF (BIRC3 RING domain (UniProt Q13489))	0
DAIPSLSECQCGICMEILVEPVTLPCNHTLCKPCFQSTVEKASLCCPFCRRRVSSWTRYH (RNF168 RING domain (UniProt Q8IYW5))	0
B4 (IRF2BPL RING domain)	0
B5 (CUL9 RING domain)	0
QLQDIKEQTMCPVCLDRLKNMIFLCGHGTCQLCGDRMSECPICRKAIERRILLY (MIB1 RING domain (UniProt Q86YT6))	0
B6 (ARK2C RING domain)	0
B7 (TRIM72 RING domain)	0
B8 (RNF170 RING domain)	0
B9 (RNF25 RING domain)	0

Series 3
Target: RNA binding protein fox-1 homolog 2, RRM domain, GST-SBP tag (RBFOX2, Homo sapiens, UniProt O43251-10, residues 100-194)
Method: RNA Bind-n-Seq
Molecule type: RNA
Medium: in vitro
Concentration: 365 nM
Notes: natural RNA segment, single round, ends assumed
Reference: no-protein control
Reading: higher = stronger binding
Shared flanks, not repeated: GGGAGUUCUACAGUCCGACGAUC … UGGAAUUCUCGGGUGCCAA
Target sequence (chain): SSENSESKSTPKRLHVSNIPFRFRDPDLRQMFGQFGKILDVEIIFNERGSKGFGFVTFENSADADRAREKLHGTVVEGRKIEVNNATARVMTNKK
Sequence	RBNS enrichment (R)
GCAAGCUGUAGCCAGAGGUACCAGCUUCGCCUGGGGCUUCAAGAACCUCCCAUCUAUCCCCAUUCCUGAGACAGGAGUUACAGUCCCUUUUGGCCCUCACAUCCAAUAAA	0.415
ACCUUGGGUUUGUGCAUGUUUUCUGCUGGGUGGGAUCUGAGGGUGAUUUCUCUUUUACCUGUACAUAUGCUAAGUAAACAGAAUUUUAAAGGCAUGCAUUUCUUACAAUC	38.1
CCCCACCCUGCCUCUUGUCCUGUUGCUAUGUCCUGGUCCUUCUUCCCGCUCUGGGCUUCUCUCAACCCCAACCCUGGGUUUUCUCCUAGACUCUUGGGCUGCGAUGCAUC	1.4
CUUUUACAUGAGGCAAGAAGGAAGUAGUUGUAGAUAGAAUCAUUUUCUAGUUCUUUAAAUGAGACAAUCACUUUGUUUUCUAAUAGAUGUGACCUGUGUAACUUAAAAAA	0.471
CCGGAAGCUCCCGCGUGCAUCCCGGGAUGACCAGACUCCCGGACUCCUCAGGCAGUGCCCUUCCUCCCCACUCUUCCUCCCCACAGACAGGCCUCUGCUCCUGCGCCUGC	0.819
AGCCGAAUAUUUCUACCUAAACUCUGGGUGUGACCUCAGCUCGCUUUCCUCUGAUCCACUGUCCAAGUUGGGUCACAAACAUGUCACUCAUGCAUGCCUGCACUCCAGAG	8.79
CUUCUCAUUUAUACAGUGCCUUUUUCUCAUGCUCAUUGUCUACUGACUUUAAGGCAGGCAACACUGGACCAUAGUGGUGCAGGCCUUCUAUUGAGGCCAGAGGAGCAAGU	0.289
AGUCCUCCCACCCCAGGACUCUAAAUUAUUGGGGUAAAAAACAGCCUUGCAAGAAAAAGGGGAGCUAUUUUUGCUUUUUAUGUUUUUUAUUGUUAAACUUGUAUCCCUUU	0.856
AGAGGGCUGGAGGGAUGAUUAGCUCGAAAAUCUAGACCUGUCCAAGGGGCUUCUCCCUUUCCUUGAGCUCUCUGGACACUGCAGAGGACCCAUGGCCAUGGAACCCUGAA	0.582
ACAGCCCCAGGAGGGUGUCAACACCAGCAAAUGCUGUAUUUGCAGCAUGUCCAAGAUGACCCUUCUCCCCUACCUCUACCUAGCCACUGGCAGGGAGGGGAGACAGUGGU	0.42
CCUCAACAAGAGAUAAAAAAAAACUGUUGCUCAUACCCGUAUCUUACUGGGUUUGUUUUUAAUAUUAUUACAAAAUAGAAUGAUCCAGUGUUGCAGAUUUGAUACAACUC	0.787
UCUCCCUUUGUCCCCACUGCAUGUUGACACAAGUAUGGAAGUGGAGCCUGGUUAGAACUUGUUUCUAGUGCUAAUGCUCUGACCUAGUAUUUCCAUUGGAGAUCACUGUC	13.6

Series 4
Target: CCNE2, cyclin fold, Cln2 fusion (human)
Method: yeast growth competition, sequencing
Medium: yeast
Notes: strong parent motif
Reference: not given
Reading: higher = stronger binding
Starting sequence: CDC25A docking peptide (human); PPHRRRLLFACSP
Change	normalised enrichment score
PPHRRRLLFACSI [P13I]	1.83
PPHRRRLLFTCSP [A10T]	3.3
PPHRRRLLFAHSP [C11H]	2.36
PPKRRRLLFACSP [H3K]	1.09
PPHRRRLLFACKP [S12K]	0.919
PPHLRRLLFACSP [R4L]	1.48
PNHRRRLLFACSP [P2N]	1.93
PPHRRRLLFALSP [C11L]	1.77
PPHRRYLLFACSP [R6Y]	0.631
PPHRRSLLFACSP [R6S]	0.976
PPHRRRLLFACVP [S12V]	1.67
PPHRRRVLFACSP [L7V]	0.974
PPHRSRLLFACSP [R5S]	0.766
PPARRRLLFACSP [H3A]	1.51
PPHRRRLLRACSP [F9R]	1.54
PPHGRRLLFACSP [R4G]	1.1
WPHRRRLLFACSP [P1W]	1.22
PPHDRRLLFACSP [R4D]	0.721
PPHRRRLQFACSP [L8Q]	1.67
PPHRNRLLFACSP [R5N]	-0.0617
PPHTRRLLFACSP [R4T]	1.27
PPHRRRLLFAPSP [C11P]	3.25
DPHRRRLLFACSP [P1D]	1.03
PPHRRRLLFKCSP [A10K]	1.67
PPHRRRLLFACWP [S12W]	1.87
